Measured values collected from several papers.
Compare with care: the assays were run in different laboratories.
Target: Dual specificity tyrosine-phosphorylation-regulated kinase 1B (DYRK1B, Homo sapiens, UniProt Q9Y463)

The remaining binding of `COc1ccc(NC(=O)Nc2ccc3c(c2)C(=O)N(C(C)CO)CC(C)C(CN(C)Cc2ccc4c(c2)OCO4)O3)cc1` (stereo not drawn) is reported as 55% (binding, competition with immobilised ligand; 10 µM).
`CNC1C[S+]2CC[S+]3CC[S+](C1)[Ru-4]321([N]=C=S)[n]2c3ccc(OC)cc3c3c4c(c5cc(F)c[n+]1c5c32)C(=O)NC4=O` (stereo not drawn) has a remaining binding of 41% (KinomeScan; 0.1 µM; reference: untreated).
Under “activity vs control”, `CNC(=O)C[C@H](Cc1ccc(C#N)cc1)NC(=O)c1cc(-c2ccc(CN[C@H](C)c3ccc(C)cc3)o2)ccc1Cl` is recorded as 109% (enzyme activity, inhibitor; 1 µM).
`O=C(Cc1ccc(OCc2ccccc2)cc1)NC1(C(=O)O)CCN(C(=O)c2ccc(-c3cccc(Cl)c3)cc2)CC1`: “activity vs control” 98% (enzyme activity, inhibitor; 10 µM).
For `Cc1[nH]nc2c1N=C(c1ccccc1Cl)c1cnc(N3CCOCC3)cc1N2`, the inhibition was 68.5% (enzyme activity, inhibitor; 0.5 µM).
`Cc1ccc(-c2c[nH]nc2C(=O)Nc2cccnc2)c(C)c1` gave a remaining binding of 5.5% (cell-free assay, competition with immobilised ligand; 10 µM).
`CN1CCN(Cc2ccc(NC(=O)c3cccc(C#Cc4cnc(N)c5ncccc45)c3)cc2C(F)(F)F)CC1` gave a remaining binding of 78% (cell-free assay, competition with immobilised ligand; 0.5 µM).
For `CN1CC[C@@H](COc2cnc(C#N)cc2-c2ccn3nc(NC(=O)C4CC4)cc3c2)C1`, the inhibition was 3% (enzyme activity, inhibitor; 1 µM).
With `NC(=O)[C@@H](O)C[C@H]1CCc2sc3ncnc(O[C@H]4CC[C@H](N5CCOCC5)CC4)c3c21` the inhibition was 79% (enzyme activity, inhibitor; 10 µM).
`COc1ccc(O)cc1-c1c[nH]c2ncc(-c3cncc(C(=O)N(C)C)c3)cc12` gave an inhibition of 5.91% (binding, competition with immobilised ligand; 0.2 µM).
The remaining binding of `COc1c(Cl)cccc1Nc1c(-c2ccncc2C#C[C@@]2(C)CCCN2C(=O)/C=C/CN(C)C)[nH]c2c1C(=O)NCC2` is reported as 77% (cell-free assay, competition with immobilised ligand; 3 µM).
With `CNS(=O)(=O)Nc1nccc(Cc2c(C)c3ccc(Oc4ncccc4F)cc3oc2=O)c1F` the remaining binding was 61% (cell-free assay, competition with immobilised ligand; 10 µM).
`Cc1cccc(O[C@H]2CCC[C@@H](C(C)CNCc3ccncc3)C2)c1` (relative stereo) gave an inhibition of -2% (cell-free assay; 10 µM).
With `CCN1CCN(Cc2ccc(C(=O)Nc3ccc(C)c(NCc4cnc5[nH]ccc5c4OC)c3)cc2C(F)(F)F)CC1` the remaining binding was 82% (binding, competition with immobilised ligand; 1 µM).
`C=C1CCCCCCCCCC(CO)C1=O` (stereo not drawn) has a remaining signal of 100% (cell-free assay; 10 µM).
`C=CC(=O)Nc1cccc(-c2cnc3[nH]cc(C(=O)NC(C)(C)C)c3n2)c1` gave an inhibition of 4% (enzyme activity, inhibitor; 0.1 µM).
`Nc1ncc(-c2cc(-c3cnn(CC(F)(F)F)c3)ncc2F)nc1C(=O)NC1CNCC(F)C1` (stereo not drawn) has a remaining activity of 79.4% (enzyme activity; 1 µM; reference: DMSO control).
`CN1CCN(Cc2ccc(-c3ccc(CO[C@H]4CCC[C@@H]4NC(=O)c4cc(-c5cnn(C)c5)cnc4N)cc3)cc2)CC1` gave an inhibition of -6% (enzyme activity, inhibitor; 0.1 µM).
